Results gathered from unrelated publications.
Parts stem from different laboratories: compare values within a part only. “And” joins repeats or separate records; there may be more than shown.

Set 1
Target: Interferon regulatory factor 5, full length, phosphomimetic (IRF5, Homo sapiens, UniProt Q13568-2, residues 1-514, K96S/S451D/S453D/S456D/S462D)
Method: protein-binding microarray
Molecule type: double-stranded DNA, one strand shown
Matrix: in vitro
Concentration: 250 nM
Setting: 60-bp whole probe
Together with: salmon DNA 0.4 mg/ml
Relative to: random background probes
Direction: higher = stronger binding
Strand	log fluorescence
GCCTAGCACTCACGAGTCCCTATCTCACTGTGCTAGGTCTTGATTCGCTTGACGCTGCTG	-0.4 z-score
GCCTAGCACTTAGATATCAGTTTCGTTTAGTGCTAGGTCTTGATTCGCTTGACGCTGCTG	8.78 z-score
GCCTAGCACTTAGGTCGCGGTCTCGGTTAGTGCTAGGTCTTGATTCGCTTGACGCTGCTG	0.334 z-score
GCCTAGCACAAACCTATAGGGCCTGACTTCGTGCTAGTCTTGATTCGCTTGACGCTGCTG	-0.33 z-score

Set 2
Target: Replicase polyprotein 1ab, polymerase (rep, Severe acute respiratory syndrome coronavirus 2, UniProt P0DTD1)
Read-out: enzyme activity
Action: inhibitor
Concentration: 20 µM
Compound	inhibition [%]
c1ccc2[nH]c(-c3cscn3)nc2c1	21
Cc1cn([C@H]2O[C@@H](CO)[C@H](O)[C@H]2F)c(=O)[nH]c1=O	-3.11
C=C[C@](C)(O)CC[C@@H]1[C@@]2(C)CCCC(C)(C)[C@@H]2CC[C@@]1(C)O	-6.05
Nc1cc(Cl)c(N=C2NCCN2)c(Cl)c1	-0.01
CCCC(CCC)C(=O)NCC(N)=O	3.68
Nc1nccc(Oc2ccc(NC(=O)c3c[nH]cc(-c4ccc(F)cc4)c3=O)cc2F)c1Cl	-9.53
COc1cc(/C=C/C(=O)CC(=O)/C=C/c2ccc(O)c(OC)c2)ccc1O	9.98
CON(C)C(=O)N1N=C(c2cc(F)ccc2F)S[C@@]1(CCCN)c1ccccc1	-2.95
COc1cc(C(=O)N2CCC(N3CCN(C)CC3)CC2)ccc1Nc1ncc2c(n1)N(C)c1ccccc1C(=O)N2C	11.4
CCn1c(=O)/c(=C2\Sc3ccccc3N2C)s/c1=C\c1cccc[n+]1CC	97.8
Cc1ccc2nc(NCCN)c3ncc(C)n3c2c1	6.76
O=S(=O)(c1cccc2cnccc12)N1CCCNCC1	4.65
Nc1ncnc2c1ncn2[C@@H]1O[C@H](C[C@@H](N)CC[C@H](N)C(=O)O)[C@@H](O)[C@H]1O	-2.96
O=C(Nc1ccc(C(=O)O)c(O)c1)c1ccccc1	-3.87
CN1CCCC(CC2c3ccccc3Sc3ccccc32)C1 (stereo not drawn)	-5.61
COc1ccc2[nH]c3c(-c4cccc5ccccc45)nccc3c2c1	-2.81
Cn1c2cc([S+](C)[O-])sc2c2cnn(Cc3cccc(N)c3)c(=O)c21 (stereo not drawn)	-0.18
CCOC(=O)Nc1cc2c(c(N)n1)N=C(c1ccccc1)[C@H](C)N2	6.09
Nc1cc(C(F)(F)F)c(-c2cc(N3CCOCC3)nc(N3CCOCC3)n2)cn1	-2.53
CCn1cnc(C(=O)NC)c1C(=O)NC	-6.74
COc1cccc([C@H](O)C2CCN(CCc3ccc(F)cc3)CC2)c1OC	2.52

Set 3
Target: Sal-like protein 4, full length isoform A (SALL4, Homo sapiens, UniProt Q9UJQ4, residues 1-1053)
UniProt Q9UJQ4, sequence (whole entry, looked up): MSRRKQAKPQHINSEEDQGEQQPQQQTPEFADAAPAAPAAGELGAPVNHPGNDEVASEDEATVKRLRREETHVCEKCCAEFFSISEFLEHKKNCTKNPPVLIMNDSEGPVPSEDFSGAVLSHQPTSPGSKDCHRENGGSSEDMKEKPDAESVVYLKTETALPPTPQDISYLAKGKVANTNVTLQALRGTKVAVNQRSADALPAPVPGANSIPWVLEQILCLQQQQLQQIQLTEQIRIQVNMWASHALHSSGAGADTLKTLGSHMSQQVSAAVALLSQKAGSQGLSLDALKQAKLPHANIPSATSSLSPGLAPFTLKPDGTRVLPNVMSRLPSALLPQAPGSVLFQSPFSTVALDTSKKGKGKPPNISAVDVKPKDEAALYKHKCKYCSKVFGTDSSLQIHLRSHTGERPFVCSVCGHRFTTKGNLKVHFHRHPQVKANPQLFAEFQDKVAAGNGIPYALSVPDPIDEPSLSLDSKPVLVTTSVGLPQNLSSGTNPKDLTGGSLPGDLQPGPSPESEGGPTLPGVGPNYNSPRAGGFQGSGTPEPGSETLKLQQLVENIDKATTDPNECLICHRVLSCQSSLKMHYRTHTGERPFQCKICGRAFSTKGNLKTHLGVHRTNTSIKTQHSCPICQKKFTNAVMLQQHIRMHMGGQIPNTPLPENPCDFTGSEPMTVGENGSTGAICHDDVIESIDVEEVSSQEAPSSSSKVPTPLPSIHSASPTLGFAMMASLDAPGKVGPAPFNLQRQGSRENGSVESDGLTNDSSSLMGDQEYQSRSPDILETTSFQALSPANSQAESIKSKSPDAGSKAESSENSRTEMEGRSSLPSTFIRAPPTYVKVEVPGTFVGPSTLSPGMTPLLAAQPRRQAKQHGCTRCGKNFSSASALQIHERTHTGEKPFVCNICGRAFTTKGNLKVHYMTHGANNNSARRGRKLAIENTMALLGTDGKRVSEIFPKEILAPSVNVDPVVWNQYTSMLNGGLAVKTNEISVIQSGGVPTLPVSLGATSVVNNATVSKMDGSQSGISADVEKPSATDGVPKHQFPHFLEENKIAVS
Method: universal PBM
Molecule type: double-stranded DNA, one strand shown
Matrix: in vitro
Concentration: 600 nM
Setting: 8-mer, flanks averaged, mean of replicates
Direction: higher = stronger binding
Strand	E-score
AGTCCCTG	-0.276
CTAGTAAC	0.0193
AGGGACCC	-0.3
ACGATCCG	-0.205
CGTACAGC	-0.111

Set 4
Target: Histone acetyltransferase KAT6A, both winged helices, GST fusion (KAT6A, Homo sapiens, UniProt Q92794, residues 1-181)
Method: protein binding microarray
Molecule type: double-stranded DNA, one strand shown
Matrix: in vitro
Concentration: not given
Setting: 8-mer, flanks averaged, mean of 2 arrays, mostly near background
Relative to: not given
Direction: higher = stronger binding
Target sequence (chain): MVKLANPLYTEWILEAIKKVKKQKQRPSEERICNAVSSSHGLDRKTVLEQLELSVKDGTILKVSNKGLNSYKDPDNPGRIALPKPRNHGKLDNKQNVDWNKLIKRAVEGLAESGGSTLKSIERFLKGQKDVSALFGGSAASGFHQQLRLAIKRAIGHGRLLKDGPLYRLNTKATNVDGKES
Strand	E-score
GGACCAGA	-0.0672
GAATAATC	-0.104
GCGGGCAC	0.197
TCCGAAAA	0.0246
ACACGCTC	0.0999
ATGTAGGG	-0.127
ATGCGGGG	0.123
AATGTGGG	-0.169

Other studies, line by line
SMILES	cell line	test	system	conditions	how to read	endpoint	result
CCCCN1CCCC[C@H]1C(=O)Nc1c(C)cccc1C	HEK-293T/ACE2	–	–	concentration not given, 16 (unit not given)	relative to: vehicle	viability	101% and 100%
Nc1ncn([C@H]2C[C@H](O)[C@@H](CO)O2)c(=O)n1	HEK-293T	pseudovirus infection	VSV pseudotyped with SARS-CoV-2 spike	10 µM, 16 h	relative to: vehicle-treated	GFP-positive cells	95.7%
CC(C)C(=O)OCC(=O)[C@@]12O[C@H](C3CCCCC3)O[C@@H]1C[C@H]1[C@@H]3CCC4=CC(=O)C=C[C@]4(C)[C@H]3[C@@H](O)C[C@@]12C	HEK-293T/ACE2	pseudovirus infection	VSV pseudotyped with SARS-CoV-2 spike	concentration not given	relative to: vehicle-treated	GFP-positive cells	28.9%
O=C([O-])/C=C/C(=O)[O-].[Fe+2]	HEK-293T-ACE2	–	–	concentration not given	relative to: vehicle	cell number	92.6%

For quick reference, copied from above (set 2):
Compound	inhibition [%]
Cc1cn([C@H]2O[C@@H](CO)[C@H](O)[C@H]2F)c(=O)[nH]c1=O	-3.11
Nc1ncnc2c1ncn2[C@@H]1O[C@H](C[C@@H](N)CC[C@H](N)C(=O)O)[C@@H](O)[C@H]1O	-2.96
COc1cc(C(=O)N2CCC(N3CCN(C)CC3)CC2)ccc1Nc1ncc2c(n1)N(C)c1ccccc1C(=O)N2C	11.4
Cc1ccc2nc(NCCN)c3ncc(C)n3c2c1	6.76
c1ccc2[nH]c(-c3cscn3)nc2c1	21
